Measured values gathered from unrelated publications.
Every numbered part comes from another study and shows a few of its results, in no order. “And” joins repeats or separate records; there may be more than shown.
Sequence of UniProt O94804 (whole entry, looked up): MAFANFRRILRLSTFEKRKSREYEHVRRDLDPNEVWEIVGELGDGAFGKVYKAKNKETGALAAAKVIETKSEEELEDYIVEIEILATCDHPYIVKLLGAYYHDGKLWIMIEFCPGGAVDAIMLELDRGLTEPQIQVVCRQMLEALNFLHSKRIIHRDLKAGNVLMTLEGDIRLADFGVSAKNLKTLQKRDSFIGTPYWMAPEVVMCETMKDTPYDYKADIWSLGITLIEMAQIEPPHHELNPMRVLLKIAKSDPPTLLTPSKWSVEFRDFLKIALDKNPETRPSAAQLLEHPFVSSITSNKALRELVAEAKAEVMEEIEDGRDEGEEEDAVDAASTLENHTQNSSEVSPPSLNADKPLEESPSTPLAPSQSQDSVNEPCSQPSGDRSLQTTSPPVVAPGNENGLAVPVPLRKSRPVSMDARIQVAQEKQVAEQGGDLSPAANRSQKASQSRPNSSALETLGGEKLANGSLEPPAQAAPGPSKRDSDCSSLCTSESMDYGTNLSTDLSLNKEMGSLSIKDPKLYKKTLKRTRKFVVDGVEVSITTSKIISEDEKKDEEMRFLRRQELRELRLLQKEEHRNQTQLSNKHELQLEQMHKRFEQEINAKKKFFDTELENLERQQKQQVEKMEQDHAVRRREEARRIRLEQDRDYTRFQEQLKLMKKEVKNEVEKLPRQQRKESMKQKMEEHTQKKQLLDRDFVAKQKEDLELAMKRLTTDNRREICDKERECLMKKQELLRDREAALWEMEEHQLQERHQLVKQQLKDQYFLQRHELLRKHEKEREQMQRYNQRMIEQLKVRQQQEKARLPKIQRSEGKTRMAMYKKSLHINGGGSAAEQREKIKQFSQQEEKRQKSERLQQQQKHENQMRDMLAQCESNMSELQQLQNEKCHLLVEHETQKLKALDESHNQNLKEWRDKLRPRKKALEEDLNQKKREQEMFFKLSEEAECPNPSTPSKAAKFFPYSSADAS
Sequence of UniProt Q15759 (whole entry, looked up): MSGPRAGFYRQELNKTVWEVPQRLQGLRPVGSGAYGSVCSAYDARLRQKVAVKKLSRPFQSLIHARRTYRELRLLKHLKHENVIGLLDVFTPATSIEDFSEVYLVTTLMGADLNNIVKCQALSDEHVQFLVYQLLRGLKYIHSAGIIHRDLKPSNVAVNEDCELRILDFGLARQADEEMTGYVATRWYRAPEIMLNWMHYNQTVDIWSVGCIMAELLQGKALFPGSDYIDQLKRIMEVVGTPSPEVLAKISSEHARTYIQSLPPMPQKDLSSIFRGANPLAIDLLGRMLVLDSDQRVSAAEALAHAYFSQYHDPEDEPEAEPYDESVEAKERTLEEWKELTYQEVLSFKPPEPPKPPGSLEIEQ
Sequence of UniProt Q13976 (whole entry, looked up): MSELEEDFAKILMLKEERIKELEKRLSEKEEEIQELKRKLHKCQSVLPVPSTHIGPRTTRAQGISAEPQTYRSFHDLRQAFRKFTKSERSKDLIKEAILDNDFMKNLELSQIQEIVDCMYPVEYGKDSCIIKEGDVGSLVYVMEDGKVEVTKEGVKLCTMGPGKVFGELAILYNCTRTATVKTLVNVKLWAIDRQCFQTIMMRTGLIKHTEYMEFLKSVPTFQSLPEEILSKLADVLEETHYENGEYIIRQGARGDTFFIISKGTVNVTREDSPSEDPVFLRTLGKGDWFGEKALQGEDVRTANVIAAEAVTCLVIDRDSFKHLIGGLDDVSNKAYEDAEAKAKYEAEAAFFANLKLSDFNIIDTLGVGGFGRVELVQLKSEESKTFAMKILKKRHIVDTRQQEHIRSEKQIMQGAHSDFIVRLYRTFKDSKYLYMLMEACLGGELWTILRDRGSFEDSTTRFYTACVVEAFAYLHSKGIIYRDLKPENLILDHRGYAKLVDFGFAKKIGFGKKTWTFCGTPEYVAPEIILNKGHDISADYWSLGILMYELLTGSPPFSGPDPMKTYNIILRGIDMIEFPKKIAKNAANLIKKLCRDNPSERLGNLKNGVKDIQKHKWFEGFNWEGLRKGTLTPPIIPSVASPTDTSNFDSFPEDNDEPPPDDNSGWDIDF
Sequence of UniProt P49841 (whole entry, looked up): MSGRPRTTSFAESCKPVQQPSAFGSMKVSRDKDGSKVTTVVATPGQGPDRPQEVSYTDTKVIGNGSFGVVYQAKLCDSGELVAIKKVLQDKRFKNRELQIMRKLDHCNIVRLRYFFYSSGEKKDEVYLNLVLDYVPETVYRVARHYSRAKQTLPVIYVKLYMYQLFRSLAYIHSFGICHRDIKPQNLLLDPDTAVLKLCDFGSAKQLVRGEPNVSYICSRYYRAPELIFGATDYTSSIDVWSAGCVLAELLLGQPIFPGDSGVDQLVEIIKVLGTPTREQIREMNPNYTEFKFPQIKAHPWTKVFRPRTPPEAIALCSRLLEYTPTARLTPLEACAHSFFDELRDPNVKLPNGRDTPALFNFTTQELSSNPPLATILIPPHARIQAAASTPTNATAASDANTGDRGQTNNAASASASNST
Sequence of UniProt O75460 (whole entry, looked up): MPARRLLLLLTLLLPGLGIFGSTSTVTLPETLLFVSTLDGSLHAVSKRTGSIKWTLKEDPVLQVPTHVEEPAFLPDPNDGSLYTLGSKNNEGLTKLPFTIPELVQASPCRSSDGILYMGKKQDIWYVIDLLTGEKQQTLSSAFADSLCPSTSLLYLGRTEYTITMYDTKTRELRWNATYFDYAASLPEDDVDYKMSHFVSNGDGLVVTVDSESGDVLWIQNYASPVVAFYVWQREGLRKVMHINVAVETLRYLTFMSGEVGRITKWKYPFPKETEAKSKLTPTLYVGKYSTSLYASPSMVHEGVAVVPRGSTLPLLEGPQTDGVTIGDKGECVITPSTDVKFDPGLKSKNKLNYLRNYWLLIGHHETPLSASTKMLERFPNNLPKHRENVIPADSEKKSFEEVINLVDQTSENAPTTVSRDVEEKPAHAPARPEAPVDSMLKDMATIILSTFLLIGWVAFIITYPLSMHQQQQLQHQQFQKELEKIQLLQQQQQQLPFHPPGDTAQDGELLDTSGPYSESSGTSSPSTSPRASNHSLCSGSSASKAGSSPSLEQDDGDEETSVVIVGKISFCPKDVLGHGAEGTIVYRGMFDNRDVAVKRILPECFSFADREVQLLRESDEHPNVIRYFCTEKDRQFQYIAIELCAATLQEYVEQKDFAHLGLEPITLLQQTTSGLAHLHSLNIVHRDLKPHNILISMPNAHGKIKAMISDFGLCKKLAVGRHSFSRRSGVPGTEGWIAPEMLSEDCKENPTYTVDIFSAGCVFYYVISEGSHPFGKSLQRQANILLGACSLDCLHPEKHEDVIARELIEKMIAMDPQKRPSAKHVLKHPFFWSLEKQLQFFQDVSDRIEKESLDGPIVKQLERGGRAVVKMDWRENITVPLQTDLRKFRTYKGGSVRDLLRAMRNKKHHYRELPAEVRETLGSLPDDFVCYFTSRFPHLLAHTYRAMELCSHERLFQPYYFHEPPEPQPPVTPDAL
Sequence of UniProt Q9BWU1 (whole entry, looked up): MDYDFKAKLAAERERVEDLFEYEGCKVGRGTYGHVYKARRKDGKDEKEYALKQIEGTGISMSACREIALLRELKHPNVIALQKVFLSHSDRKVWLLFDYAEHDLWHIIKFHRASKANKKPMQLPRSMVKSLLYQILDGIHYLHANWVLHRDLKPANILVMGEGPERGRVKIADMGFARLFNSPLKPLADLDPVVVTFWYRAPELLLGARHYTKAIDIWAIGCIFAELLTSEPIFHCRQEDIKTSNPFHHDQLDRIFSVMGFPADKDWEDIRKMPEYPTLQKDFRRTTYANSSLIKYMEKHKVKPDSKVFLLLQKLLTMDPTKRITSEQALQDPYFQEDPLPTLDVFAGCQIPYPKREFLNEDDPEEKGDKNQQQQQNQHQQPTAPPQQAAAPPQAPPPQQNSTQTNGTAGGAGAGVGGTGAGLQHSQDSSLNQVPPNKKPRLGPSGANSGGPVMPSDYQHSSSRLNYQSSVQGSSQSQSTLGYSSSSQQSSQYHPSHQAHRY
Sequence of UniProt Q99759 (whole entry, looked up): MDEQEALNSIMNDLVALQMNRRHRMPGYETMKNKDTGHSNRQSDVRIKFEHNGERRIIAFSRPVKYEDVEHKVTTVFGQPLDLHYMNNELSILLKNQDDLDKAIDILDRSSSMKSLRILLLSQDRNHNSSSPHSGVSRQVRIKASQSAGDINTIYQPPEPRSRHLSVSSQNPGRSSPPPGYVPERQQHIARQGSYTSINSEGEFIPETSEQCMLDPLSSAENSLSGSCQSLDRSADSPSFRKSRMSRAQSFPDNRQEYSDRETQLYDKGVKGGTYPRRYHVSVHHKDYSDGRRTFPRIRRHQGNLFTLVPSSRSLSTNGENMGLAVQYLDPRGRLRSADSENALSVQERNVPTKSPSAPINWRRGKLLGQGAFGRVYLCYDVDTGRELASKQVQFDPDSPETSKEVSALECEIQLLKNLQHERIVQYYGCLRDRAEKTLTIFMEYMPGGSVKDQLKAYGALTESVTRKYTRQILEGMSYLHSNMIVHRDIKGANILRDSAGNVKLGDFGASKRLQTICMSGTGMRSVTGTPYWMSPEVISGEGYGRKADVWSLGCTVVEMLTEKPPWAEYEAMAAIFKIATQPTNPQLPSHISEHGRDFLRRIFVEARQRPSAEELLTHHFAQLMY
Sequence of UniProt P31751 (whole entry, looked up): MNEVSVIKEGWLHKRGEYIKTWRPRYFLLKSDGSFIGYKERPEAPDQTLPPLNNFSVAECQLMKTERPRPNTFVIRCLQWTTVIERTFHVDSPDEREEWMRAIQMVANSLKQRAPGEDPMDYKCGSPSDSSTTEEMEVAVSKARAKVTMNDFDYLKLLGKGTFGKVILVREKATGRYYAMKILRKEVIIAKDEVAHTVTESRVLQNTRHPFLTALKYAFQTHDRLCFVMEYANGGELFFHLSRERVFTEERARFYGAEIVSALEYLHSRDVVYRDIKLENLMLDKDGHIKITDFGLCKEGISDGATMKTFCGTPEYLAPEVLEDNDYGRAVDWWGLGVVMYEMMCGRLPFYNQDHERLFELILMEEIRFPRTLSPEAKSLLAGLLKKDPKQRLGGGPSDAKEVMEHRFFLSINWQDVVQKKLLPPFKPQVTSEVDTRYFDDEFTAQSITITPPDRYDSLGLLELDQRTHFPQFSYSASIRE

Series 1 — effect on: enzyme activity; mode: inhibitor; concentration: 0.5 µM; baseline: control
Structure (SMILES): C[S+]([O-])c1ccc(-c2nc(-c3ccncc3)c(-c3ccc(F)cc3)[nH]2)cc1 (stereo not drawn)
Protein kinase C beta type, isoform beta-I (PRKCB, Homo sapiens, UniProt P05771) — remaining activity: 74%.
For cAMP-dependent protein kinase catalytic subunit alpha (PRKACA, Homo sapiens, UniProt P17612): remaining activity read 98.9%.
It gave 105% for remaining activity (Cyclin-dependent kinase 4, with cyclin D1 (CDK4, Homo sapiens, UniProt P11802)).
The remaining activity was 99.1% (Tyrosine-protein kinase Lyn, isoform B (LYN, Homo sapiens, UniProt P07948)).
The remaining activity was 90.5% (Cyclin-dependent kinase 5, with p25 (CDK5, Homo sapiens, UniProt Q00535)).
It gave 88.8% for remaining activity (cGMP-dependent protein kinase 1, isoform beta (PRKG1, Homo sapiens, UniProt Q13976)).
The remaining activity was 102% (Serine/threonine-protein kinase OSR1 (OXSR1, Homo sapiens, UniProt O95747)).
For Inhibitor of nuclear factor kappa-B kinase subunit beta (IKBKB, Homo sapiens, UniProt O14920): remaining activity read 106%.
For Serine/threonine-protein kinase 10 (STK10, Homo sapiens, UniProt O94804): remaining activity read 89.1%.
It gave 102% for remaining activity (Death-associated protein kinase 2 (DAPK2, Homo sapiens, UniProt Q9UIK4)).

Series 2 — cell line: HaCaT; concentration: 100 µM; time: 36 h
The viability of `CCN(CC)CCc1nc(-c2ccccc2)no1` is reported as 89.9%.
`NC(=O)N1c2ccccc2CCc2ccccc21` gave a viability of 91.5%.
`CC[C@H]1OC(=O)[C@H](C)[C@@H](O[C@H]2C[C@@](C)(OC)[C@@H](O)[C@H](C)O2)[C@H](C)[C@@H](O[C@@H]2O[C@H](C)C[C@H](N(C)C)[C@H]2O)[C@](C)(OC)C[C@@H](C)C(=O)[C@H](C)[C@@H](O)[C@]1(C)O` has a viability of 87%.
For `OC[C@@H](O)[C@@H](O)[C@H](O)[C@@H](O)CO`, the viability was 99%.
For `Cc1ccc(Nc2nccc(N(C)c3ccc4c(C)n(C)nc4c3)n2)cc1S(N)(=O)=O`, the viability was 93.7%.
With `O=C(O)C1=CO[C@@H](O[C@@H]2O[C@H](CO)[C@@H](O)[C@H](O)[C@H]2O)[C@@H]2C(CO)=CC[C@H]12` the viability was 93.1%.
`N#Cc1ccc2[nH]cc(CCCCN3CCN(c4ccc5oc(C(N)=O)cc5c4)CC3)c2c1` gave a viability of 5.65%.

Series 3 — cell line: mouse MPNST tumor cells; method: high-content nuclear imaging; item: cell number; concentration: 10 µM; time: 12 h; setting: mean of 2 replicates; baseline: plate mean; direction: higher = more cells
For `Cc1ccc(C)c(OCCCC(C)(C)C(=O)O)c1`, the nuclei count was -0.216 z-score.
`NS(=O)(=O)c1cc2c(cc1C(F)(F)F)NCNS2(=O)=O` has a nuclei count of -0.839 z-score.
The nuclei count of `CCC[C@@H]1C[C@@H](C(=O)N[C@@H]([C@H]2O[C@H](SC)[C@H](O)[C@@H](O)[C@H]2O)[C@H](C)Cl)N(C)C1` is reported as 1.42 z-score.
For `Oc1cc2c(cc1O)CN(C(=S)NCCc1ccc(Cl)cc1)CCC2`, the nuclei count was -0.151 z-score.
The nuclei count of `CN1CCCCC1CCN1c2ccccc2Sc2ccc([S+](C)[O-])cc21` (stereo not drawn) is reported as 2.33 z-score.
For `Cc1ccc(N(CC2=NCCN2)c2cccc(O)c2)cc1`, the nuclei count was -1.45 z-score and -2.24 z-score.
`Brc1c(Br)c(Br)c2n[nH]nc2c1Br` gave a nuclei count of 0.154 z-score.
`Cc1cccc(-c2[nH]c(C(C)(C)C)nc2-c2ccc3nccnc3c2)n1` gave a nuclei count of -2.92 z-score.
The nuclei count of `CNCC[C@H](Oc1cccc2ccccc12)c1cccs1` is reported as -3.75 z-score.
`N[C@@H]1CONC1=O` gave a nuclei count of -0.566 z-score and -2.22 z-score.
`O=C1C(=O)N(Cc2ccc(Cl)c(Cl)c2)c2ccccc21` has a nuclei count of -1.26 z-score.
The nuclei count of `O=C(Nc1cc(-c2ccccc2)nn1-c1ccccc1)c1ccc([N+](=O)[O-])cc1` is reported as 4.3 z-score.

Series 4 — concentration: 1 µM
SMILES: COc1ccc2cc(OCC3(C(=O)O)CN(C(=O)c4ccc(F)cc4)C3)ccc2c1
For MAP kinase-interacting serine/threonine-protein kinase 2 (MKNK2, Homo sapiens, UniProt Q9HBH9); cell-free assay, competition with immobilised ligand: remaining binding read 96%.
Mitogen-activated protein kinase kinase kinase 3 (MAP3K3, Homo sapiens, UniProt Q99759); cell-free assay, competition with immobilised ligand — remaining binding: 97%.
It gave 100% for remaining binding (Epidermal growth factor receptor (EGFR, Homo sapiens, UniProt P00533, T790M); cell-free assay, competition with immobilised ligand).
The remaining binding was 100% (Wee1-like protein kinase (WEE1, Homo sapiens, UniProt P30291); cell-free assay, competition with immobilised ligand).
Phosphatidylinositol 4,5-bisphosphate 3-kinase catalytic subunit alpha isoform (PIK3CA, Homo sapiens, UniProt P42336, Q546K); cell-free assay, competition with immobilised ligand — remaining binding: 42%.
AP2-associated protein kinase 1 (AAK1, Homo sapiens, UniProt Q2M2I8); binding — remaining binding: 100%.
Aurora kinase C (AURKC, Homo sapiens, UniProt Q9UQB9); cell-free assay, competition with immobilised ligand — remaining binding: 98%.
It gave 100% for remaining binding (Dual specificity protein kinase TTK (TTK, Homo sapiens, UniProt P33981); cell-free assay, competition with immobilised ligand).
It gave 100% for remaining binding (RAC-beta serine/threonine-protein kinase (AKT2, Homo sapiens, UniProt P31751); cell-free assay, competition with immobilised ligand).
It gave 95% for remaining binding (Cyclin-dependent kinase 19 (CDK19, Homo sapiens, UniProt Q9BWU1); competition binding).
For Casein kinase II subunit alpha' (CSNK2A2, Homo sapiens, UniProt P19784); cell-free assay, competition with immobilised ligand: remaining binding read 100%.
The remaining binding was 100% (BMP-2-inducible protein kinase (BMP2K, Homo sapiens, UniProt Q9NSY1); cell-free assay, competition with immobilised ligand).
The remaining binding was 100% (Mitogen-activated protein kinase kinase kinase kinase 2 (MAP4K2, Homo sapiens, UniProt Q12851); cell-free assay, competition with immobilised ligand).
The remaining binding was 100% (Mitogen-activated protein kinase kinase kinase 1 (MAP3K1, Homo sapiens, UniProt Q13233); cell-free assay, competition with immobilised ligand).
For Serine/threonine-protein kinase 36 (STK36, Homo sapiens, UniProt Q9NRP7); cell-free assay, competition with immobilised ligand: remaining binding read 89%.
For Serine/threonine-protein kinase SIK2 (SIK2, Homo sapiens, UniProt Q9H0K1); cell-free assay, competition with immobilised ligand: remaining binding read 100%.
For Serine/threonine-protein kinase WNK3 (WNK3, Homo sapiens, UniProt Q9BYP7); cell-free assay, competition with immobilised ligand: remaining binding read 93%.
For Serine/threonine-protein kinase/endoribonuclease IRE1 (ERN1, Homo sapiens, UniProt O75460); cell-free assay, competition with immobilised ligand: remaining binding read 80%.
For Mitogen-activated protein kinase 11 (MAPK11, Homo sapiens, UniProt Q15759); cell-free assay, competition with immobilised ligand: remaining binding read 78%.
It gave 100% for remaining binding (Glycogen synthase kinase-3 beta (GSK3B, Homo sapiens, UniProt P49841); cell-free assay, competition with immobilised ligand).
It gave 100% for remaining binding (Serine/threonine-protein kinase STK11 (STK11, Homo sapiens, UniProt Q15831); cell-free assay, competition with immobilised ligand).
For Serine/threonine-protein kinase 10 (STK10, Homo sapiens, UniProt O94804); cell-free assay, competition with immobilised ligand: remaining binding read 100%.

A few entries again (series 4):
The remaining binding was 100% (BMP-2-inducible protein kinase (BMP2K, Homo sapiens, UniProt Q9NSY1); cell-free assay, competition with immobilised ligand).
The remaining binding was 100% (Mitogen-activated protein kinase kinase kinase kinase 2 (MAP4K2, Homo sapiens, UniProt Q12851); cell-free assay, competition with immobilised ligand).
The remaining binding was 100% (Mitogen-activated protein kinase kinase kinase 1 (MAP3K1, Homo sapiens, UniProt Q13233); cell-free assay, competition with immobilised ligand).
For Serine/threonine-protein kinase 36 (STK36, Homo sapiens, UniProt Q9NRP7); cell-free assay, competition with immobilised ligand: remaining binding read 89%.
For Serine/threonine-protein kinase SIK2 (SIK2, Homo sapiens, UniProt Q9H0K1); cell-free assay, competition with immobilised ligand: remaining binding read 100%.
For Serine/threonine-protein kinase WNK3 (WNK3, Homo sapiens, UniProt Q9BYP7); cell-free assay, competition with immobilised ligand: remaining binding read 93%.
For Serine/threonine-protein kinase/endoribonuclease IRE1 (ERN1, Homo sapiens, UniProt O75460); cell-free assay, competition with immobilised ligand: remaining binding read 80%.
For Mitogen-activated protein kinase 11 (MAPK11, Homo sapiens, UniProt Q15759); cell-free assay, competition with immobilised ligand: remaining binding read 78%.
